{"data": "Measured values pooled from the literature", "note": "Protocols differ between the studies behind these lines. Numbers after ± are the reported error."}
{"Structure (SMILES)": "O=C(O)CCCOc1ccc([18F])cc1-c1cc(-c2ccccc2C(F)(F)F)n(-c2ccccc2)n1", "test system": "mouse, blood", "conditions": "intravenous, dose not given, 180 min", "tissue uptake": "0.25 ± 0.06 %ID/g"}
{"Structure (SMILES)": "CCCC[C@H](NC(=O)COCCOCCNC(=O)CN1CCN(CC(=O)O)CCN(CC(=O)O)CC1)C(=O)N[C@H]1CC(=O)NCCCC[C@@H](C(N)=O)NC(=O)[C@H](Cc2c[nH]c3ccccc23)NC(=O)[C@H](CCCNC(=N)N)NC(=O)[C@@H](Cc2ccccc2)NC(=O)[C@H](Cc2c[nH]cn2)NC1=O [fluorine-18 labelled]", "test system": "C57 mice B16-F10 melanoma, spleen", "conditions": "intravenous, 0.37 MBq, 1 h", "tissue uptake": "0.25 ± 0.15 %ID/g"}
{"Structure (SMILES)": "COc1cccc(OC)c1-c1cc(C(=O)NC2(C(=O)O)C3CC4CC(C3)CC2C4)nn1-c1ccc(C(=O)NCCNC(=O)[C@H](CCCCNC(=O)[C@H](CC(C)C)NC(=O)C2OC2C(=O)O)NC(=O)CN2CCN(CC(=O)[O-])CCN(CC(=O)[O-])CCN(CC(=O)[O-])CC2)cc1C(C)C.[177Lu+3] (mixture of isomers)", "test system": "mouse, HT-29 xenograft, brain", "conditions": "24 h post injection", "tissue uptake": "0.07 %ID/g"}
{"Structure (SMILES)": "Cc1cc(C)n(CCN(CCN)CCCCCCNC(=O)[C@@H](N)Cc2c[nH]cn2)n1.[99Tc+].[C-]#[O+].[C-]#[O+].[C-]#[O+]", "test system": "BALB/c nude mice A549 xenograft, tumor", "conditions": "intravenous, 24 h", "tissue uptake": "0.76 ± 0.2 %ID/g"}
{"Structure (SMILES)": "COc1cccc(OC)c1-c1cc(C(=O)NC2(C(=O)O)C3CC4CC(C3)CC2C4)nn1-c1ccc(C(=O)N(C)CCCN(C)C(=O)[C@H](CCCCNC(=O)[C@H](CC(C)C)NC(=O)C2OC2C(=O)O)NC(=O)CN2CCN(CC(=O)[O-])CCN(CC(=O)[O-])CCN(CC(=O)[O-])CC2)cc1C(C)C.[177Lu+3] (mixture of isomers)", "test system": "mouse HT-29 xenograft, small intestine", "conditions": "4 h post injection, biodistribution", "tissue uptake": "0.38 %ID/g"}
{"Structure (SMILES)": "N#C[C@@H]1CC(F)(F)CN1C(=O)CNC(=O)c1ccnc2c(NC(=O)CCOCCOCCOCCOCCOCCOCCNC(=O)[C@H](CCCCNC(=O)CN3CCN(CC(=O)[O-])CCN(CC(=O)[O-])CCN(CC(=O)[O-])CC3)NC(=O)CCCc3ccc(I)cc3)cccc12.[177Lu+3]", "test system": "mouse, U-87 MG tumour xenograft, salivary gland", "conditions": "4 h", "tissue uptake": "2.24 ± 0.53 %ID/g"}
{"Structure (SMILES)": "CC(C)C[C@H](NC(=O)[C@@H](CCCCNC(=O)[C@@H](Cc1ccccc1)NC(=O)CCCCCCCNC(=O)CN1CCN(CC(=O)O)CCN(CC(=O)O)CCN(CC(=O)O)CC1)NC(=O)[C@H](Cc1ccc(O)cc1)NC(=O)[C@H](CO)NC(=O)[C@H](Cc1c[nH]c2ccccc12)NC(=O)[C@H](Cc1c[nH]cn1)NC(=O)[C@@H]1CCC(=O)N1)C(=O)N[C@@H](CCCNC(=N)N)C(=O)N1CCC[C@H]1C(=O)NCC(N)=O [indium-111 labelled]", "test system": "male athymic nude mice, DU-145 xenograft, intestines", "conditions": "intravenous, 1 h, with: 10 µg unlabelled blocking peptide", "tissue uptake": "1.1 ± 0.64 %ID"}
{"Structure (SMILES)": "N#C[C@@H]1CC(F)(F)CN1C(=O)CNC(=O)c1ccnc2c(NC(=O)[C@@H](N)CCCCNC(=O)CCOCCOCCOCCOCCOCCOCCNC(=O)CN3CCN(CC(=O)[O-])CCN(CC(=O)[O-])CCN(CC(=O)[O-])CC3)cccc12.[177Lu+3]", "test system": "mouse, U-87 MG tumour xenograft, kidneys", "conditions": "4 h", "tissue uptake": "4.44 ± 0.53 %ID/g"}
{"Structure (SMILES)": "[123I]c1ccc2nc(-c3ccc(-n4ccnn4)nc3)cn2c1", "test system": "male Wistar rat, small intestine", "conditions": "intravenous, 4 MBq, 1 h", "tissue uptake": "12.7 ± 0.886 %ID/g"}
{"Structure (SMILES)": "COc1cccc(OC)c1-c1cc(C(=O)NC2(C(=O)O)C3CC4CC(C3)CC2C4)nn1-c1ccc(C(=O)N(C)CCOCCN(C)C(=O)[C@H](CCCCNC(=O)[C@H](CC(C)C)NC(=O)C2OC2C(=O)O)NC(=O)CN2CCN(CC(=O)[O-])CCN(CC(=O)[O-])CCN(CC(=O)[O-])CC2)cc1C(C)C.[177Lu+3] (mixture of isomers)", "test system": "mouse, HT-29 xenograft, liver", "conditions": "168 h post injection", "tissue uptake": "0.3 %ID/g"}
{"Structure (SMILES)": "CCCC[C@H](NC(=O)CNC(=O)CNC(=O)[C@H](CCCCNC(=O)[C@H](CC(=O)O)NC(=O)C(C)c1ccc(CC(C)C)cc1)NC(=O)CN1CCN(CC(=O)O)CCN(CC(=O)O)CCN(CC(=O)O)CC1)C(=O)N[C@H]1CC(=O)NCCCC[C@@H](C(N)=O)NC(=O)[C@H](Cc2c[nH]c3ccccc23)NC(=O)[C@H](CCCNC(=N)N)NC(=O)[C@@H](Cc2ccccc2)NC(=O)[C@H](Cc2c[nH]cn2)NC1=O (stereo partly shown) [lutetium-177 labelled]", "test system": "C57 mice, tumour-bearing, bone", "conditions": "intravenous, 0.037 MBq, 0.5 h", "tissue uptake": "1.55 ± 0.27 %ID/g"}
{"Structure (SMILES)": "COc1cccc(OC)c1-c1cc(C(=O)NC2(C(=O)O)C3CC4CC(C3)CC2C4)nn1-c1ccc(C(=O)N(C)CCOCCOCCN(C)C(=O)[C@H](CCCCNC(=O)[C@H](CC(C)C)NC(=O)C2OC2C(=O)O)NC(=O)CN2CCN(CC(=O)[O-])CCN(CC(=O)[O-])CCN(CC(=O)[O-])CC2)cc1C(C)C.[177Lu+3] (mixture of isomers)", "test system": "mouse, HT-29 xenograft, liver", "conditions": "72 h post injection", "tissue uptake": "0.75 %ID/g"}
{"Structure (SMILES)": "CC(C)Cc1ccc(C(C)C(=O)N[C@@H](CCCCNC(=O)CCOCCOCCOCCOCCOCCOCCNC(=O)CN2CCN(CC(=O)[O-])CCN(CC(=O)[O-])CCN(CC(=O)[O-])CC2)C(=O)Nc2cccc3c(C(=O)NCC(=O)N4CC(F)(F)C[C@H]4C#N)ccnc23)cc1.[177Lu+3] (stereo partly shown)", "test system": "mouse, U-87 MG tumour xenograft, salivary gland", "conditions": "24 h", "tissue uptake": "2.15 ± 0.86 %ID/g"}
{"note": "A few entries again:"}
{"Structure (SMILES)": "COc1cccc(OC)c1-c1cc(C(=O)NC2(C(=O)O)C3CC4CC(C3)CC2C4)nn1-c1ccc(C(=O)NCCNC(=O)[C@H](CCCCNC(=O)[C@H](CC(C)C)NC(=O)C2OC2C(=O)O)NC(=O)CN2CCN(CC(=O)[O-])CCN(CC(=O)[O-])CCN(CC(=O)[O-])CC2)cc1C(C)C.[177Lu+3] (mixture of isomers)", "test system": "mouse, HT-29 xenograft, brain", "conditions": "24 h post injection", "tissue uptake": "0.07 %ID/g"}
{"Structure (SMILES)": "Cc1cc(C)n(CCN(CCN)CCCCCCNC(=O)[C@@H](N)Cc2c[nH]cn2)n1.[99Tc+].[C-]#[O+].[C-]#[O+].[C-]#[O+]", "test system": "BALB/c nude mice A549 xenograft, tumor", "conditions": "intravenous, 24 h", "tissue uptake": "0.76 ± 0.2 %ID/g"}
